Measured values gathered from unrelated publications.
Each numbered part is a random draw from the data of one study; scales do not carry over between parts.
Sequence of UniProt Q86Z02 (whole entry, looked up): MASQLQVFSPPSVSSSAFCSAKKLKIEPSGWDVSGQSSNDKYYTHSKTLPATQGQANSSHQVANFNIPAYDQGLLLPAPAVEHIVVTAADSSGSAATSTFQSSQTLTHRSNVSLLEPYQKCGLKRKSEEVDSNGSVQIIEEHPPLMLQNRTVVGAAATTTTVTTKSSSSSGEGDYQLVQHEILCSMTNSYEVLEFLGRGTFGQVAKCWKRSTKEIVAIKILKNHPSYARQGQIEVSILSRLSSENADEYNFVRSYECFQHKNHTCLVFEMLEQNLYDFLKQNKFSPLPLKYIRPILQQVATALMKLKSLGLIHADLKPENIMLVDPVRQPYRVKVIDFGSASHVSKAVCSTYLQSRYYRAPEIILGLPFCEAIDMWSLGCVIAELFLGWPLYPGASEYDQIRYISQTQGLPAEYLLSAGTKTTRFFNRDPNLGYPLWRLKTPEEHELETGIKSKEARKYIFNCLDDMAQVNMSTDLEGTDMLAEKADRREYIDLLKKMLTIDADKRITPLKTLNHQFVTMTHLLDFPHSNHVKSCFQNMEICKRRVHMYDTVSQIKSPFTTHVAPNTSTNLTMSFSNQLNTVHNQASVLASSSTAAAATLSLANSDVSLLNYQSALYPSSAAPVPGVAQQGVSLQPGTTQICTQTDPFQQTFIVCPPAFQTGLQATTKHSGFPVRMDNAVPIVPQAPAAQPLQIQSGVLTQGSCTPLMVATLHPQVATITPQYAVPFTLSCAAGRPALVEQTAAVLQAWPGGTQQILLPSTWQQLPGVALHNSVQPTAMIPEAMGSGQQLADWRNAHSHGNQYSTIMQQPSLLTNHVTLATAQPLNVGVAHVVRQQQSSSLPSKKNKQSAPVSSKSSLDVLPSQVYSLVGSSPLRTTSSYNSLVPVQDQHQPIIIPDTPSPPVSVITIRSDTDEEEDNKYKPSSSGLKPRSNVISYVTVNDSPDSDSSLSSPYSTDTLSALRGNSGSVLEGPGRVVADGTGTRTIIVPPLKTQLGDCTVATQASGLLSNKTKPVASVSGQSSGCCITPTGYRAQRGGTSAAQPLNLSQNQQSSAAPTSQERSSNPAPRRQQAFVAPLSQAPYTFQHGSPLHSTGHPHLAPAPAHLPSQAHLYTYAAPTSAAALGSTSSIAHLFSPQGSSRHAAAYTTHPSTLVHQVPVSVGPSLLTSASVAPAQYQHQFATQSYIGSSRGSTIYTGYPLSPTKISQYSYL
Sequence of UniProt Q9Y4K4 (whole entry, looked up): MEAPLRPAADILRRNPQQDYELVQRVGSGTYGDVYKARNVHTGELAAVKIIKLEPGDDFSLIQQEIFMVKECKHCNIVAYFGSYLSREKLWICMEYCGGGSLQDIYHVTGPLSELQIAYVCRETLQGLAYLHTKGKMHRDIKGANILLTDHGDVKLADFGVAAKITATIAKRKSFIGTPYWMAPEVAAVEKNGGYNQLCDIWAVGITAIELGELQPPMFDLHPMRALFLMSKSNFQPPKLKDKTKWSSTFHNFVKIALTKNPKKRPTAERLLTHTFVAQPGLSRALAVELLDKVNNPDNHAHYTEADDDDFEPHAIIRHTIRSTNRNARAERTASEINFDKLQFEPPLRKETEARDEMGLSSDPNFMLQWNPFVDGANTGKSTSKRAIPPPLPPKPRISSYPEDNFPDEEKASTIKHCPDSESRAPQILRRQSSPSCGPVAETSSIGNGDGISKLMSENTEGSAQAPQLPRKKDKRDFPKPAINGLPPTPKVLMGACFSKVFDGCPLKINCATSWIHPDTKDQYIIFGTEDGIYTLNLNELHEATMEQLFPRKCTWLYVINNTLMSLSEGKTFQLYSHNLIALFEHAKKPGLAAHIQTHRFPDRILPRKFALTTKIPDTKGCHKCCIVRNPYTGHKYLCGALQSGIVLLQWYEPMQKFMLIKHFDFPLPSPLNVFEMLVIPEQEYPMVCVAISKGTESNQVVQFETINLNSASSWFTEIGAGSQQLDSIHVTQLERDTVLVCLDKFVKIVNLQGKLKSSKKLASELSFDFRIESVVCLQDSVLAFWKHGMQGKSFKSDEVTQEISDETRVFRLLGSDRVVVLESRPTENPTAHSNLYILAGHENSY
Sequence of UniProt P49759 (whole entry, looked up): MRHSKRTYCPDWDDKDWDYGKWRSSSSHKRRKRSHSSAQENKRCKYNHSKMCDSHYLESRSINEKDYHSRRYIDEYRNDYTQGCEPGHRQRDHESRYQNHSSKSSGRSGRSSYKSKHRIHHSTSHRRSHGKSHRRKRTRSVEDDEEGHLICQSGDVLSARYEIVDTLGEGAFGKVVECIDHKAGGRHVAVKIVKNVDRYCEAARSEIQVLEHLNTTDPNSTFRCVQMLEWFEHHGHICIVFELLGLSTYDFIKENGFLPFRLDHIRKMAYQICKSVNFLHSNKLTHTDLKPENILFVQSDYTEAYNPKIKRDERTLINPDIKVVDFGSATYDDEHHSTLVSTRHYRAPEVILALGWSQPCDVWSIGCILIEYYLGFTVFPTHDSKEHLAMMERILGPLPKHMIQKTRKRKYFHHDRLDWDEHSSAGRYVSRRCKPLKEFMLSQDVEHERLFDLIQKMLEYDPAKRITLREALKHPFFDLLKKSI
Sequence of UniProt Q9NRH2 (whole entry, looked up): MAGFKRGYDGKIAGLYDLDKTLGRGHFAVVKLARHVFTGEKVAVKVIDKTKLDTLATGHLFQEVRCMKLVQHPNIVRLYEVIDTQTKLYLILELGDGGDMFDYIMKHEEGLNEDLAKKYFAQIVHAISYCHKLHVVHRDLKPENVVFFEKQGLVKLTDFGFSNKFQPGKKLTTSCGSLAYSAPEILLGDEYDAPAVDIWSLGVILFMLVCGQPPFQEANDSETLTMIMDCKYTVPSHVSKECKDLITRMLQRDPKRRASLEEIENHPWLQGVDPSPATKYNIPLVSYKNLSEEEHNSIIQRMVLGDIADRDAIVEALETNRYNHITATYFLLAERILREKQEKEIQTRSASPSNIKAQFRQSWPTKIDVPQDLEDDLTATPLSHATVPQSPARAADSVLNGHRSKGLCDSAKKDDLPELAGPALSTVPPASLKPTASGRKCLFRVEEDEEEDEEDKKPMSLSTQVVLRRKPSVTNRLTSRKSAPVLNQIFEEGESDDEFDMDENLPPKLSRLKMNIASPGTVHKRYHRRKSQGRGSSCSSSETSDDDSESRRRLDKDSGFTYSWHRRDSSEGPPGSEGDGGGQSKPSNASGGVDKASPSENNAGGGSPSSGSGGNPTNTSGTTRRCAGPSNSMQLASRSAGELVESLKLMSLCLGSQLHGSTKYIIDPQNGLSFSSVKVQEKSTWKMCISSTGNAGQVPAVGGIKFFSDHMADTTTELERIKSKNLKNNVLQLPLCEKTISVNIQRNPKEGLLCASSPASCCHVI
Sequence of UniProt P54762 (whole entry, looked up): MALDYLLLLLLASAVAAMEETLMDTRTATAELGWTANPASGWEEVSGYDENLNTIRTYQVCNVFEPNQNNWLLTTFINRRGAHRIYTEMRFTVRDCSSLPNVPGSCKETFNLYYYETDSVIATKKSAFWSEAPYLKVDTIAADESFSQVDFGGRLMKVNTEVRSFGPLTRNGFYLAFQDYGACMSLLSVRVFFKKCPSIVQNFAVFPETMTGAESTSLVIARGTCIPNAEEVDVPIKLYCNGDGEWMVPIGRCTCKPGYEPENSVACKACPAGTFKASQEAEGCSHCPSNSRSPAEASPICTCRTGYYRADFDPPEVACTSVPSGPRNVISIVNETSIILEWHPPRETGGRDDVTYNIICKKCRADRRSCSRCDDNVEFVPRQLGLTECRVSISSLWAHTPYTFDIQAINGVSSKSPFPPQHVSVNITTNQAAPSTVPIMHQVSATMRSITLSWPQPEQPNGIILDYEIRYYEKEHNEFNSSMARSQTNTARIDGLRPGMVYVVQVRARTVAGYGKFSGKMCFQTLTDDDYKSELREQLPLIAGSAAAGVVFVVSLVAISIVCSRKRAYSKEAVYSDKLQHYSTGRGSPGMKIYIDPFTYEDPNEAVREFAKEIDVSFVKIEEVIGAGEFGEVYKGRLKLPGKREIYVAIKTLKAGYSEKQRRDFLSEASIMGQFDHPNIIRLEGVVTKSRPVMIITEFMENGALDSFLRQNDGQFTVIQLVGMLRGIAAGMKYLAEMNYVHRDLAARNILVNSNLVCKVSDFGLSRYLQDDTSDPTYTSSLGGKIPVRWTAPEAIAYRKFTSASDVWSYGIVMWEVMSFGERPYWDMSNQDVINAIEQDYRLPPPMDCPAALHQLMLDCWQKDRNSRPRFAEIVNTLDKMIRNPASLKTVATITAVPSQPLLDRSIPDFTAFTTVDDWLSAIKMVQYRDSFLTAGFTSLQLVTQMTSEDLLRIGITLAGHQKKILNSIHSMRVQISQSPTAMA
Sequence of UniProt P31749 (whole entry, looked up): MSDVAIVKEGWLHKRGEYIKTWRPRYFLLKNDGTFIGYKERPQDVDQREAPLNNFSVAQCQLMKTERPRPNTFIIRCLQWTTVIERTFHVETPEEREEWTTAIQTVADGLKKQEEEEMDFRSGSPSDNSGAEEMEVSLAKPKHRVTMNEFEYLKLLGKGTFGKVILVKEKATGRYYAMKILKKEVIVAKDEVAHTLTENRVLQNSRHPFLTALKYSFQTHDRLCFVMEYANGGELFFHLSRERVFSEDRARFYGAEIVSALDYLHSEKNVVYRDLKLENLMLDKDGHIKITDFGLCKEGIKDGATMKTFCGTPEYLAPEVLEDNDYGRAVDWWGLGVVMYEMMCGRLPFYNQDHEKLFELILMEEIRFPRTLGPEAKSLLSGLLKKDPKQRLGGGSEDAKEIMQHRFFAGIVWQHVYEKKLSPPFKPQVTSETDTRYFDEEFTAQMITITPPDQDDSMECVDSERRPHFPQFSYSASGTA

Sample 1 — species: mouse; medium: microsomes or S9; tested at: 2 µM; time: 0.5 h; quantity: remaining compound
CC1(C)Cc2c(c(N3CCOCC3)nc3sc4c(=O)n(CCc5ccccc5)cnc4c23)CO1: 14.4%
CC(C)N(CCNC(=O)c1ccc2c(c1)N(Cc1cccc(Cl)c1)C(=O)c1ccccc1[S+]2[O-])Cc1ccccc1 (centres unmarked): 0.0422%
CCn1ccnc1C(O)c1cc(OC)ccc1OC (centres unmarked): 60.6%
CCN(CC)c1nc2c(S(=O)(=O)c3ccccc3)nnn2c2ccsc12: 1.78%

Sample 2 — technique: protein binding microarray; molecule type: double-stranded DNA, one strand shown; medium: in vitro; tested at: not given; baseline: not given; direction: higher = stronger binding; quantity: E-score
Target: Histone acetyltransferase KAT6A, winged helix 2, GST fusion (KAT6A, Homo sapiens, UniProt Q92794, residues 85-181)
Setting: 8-mer, flanks averaged, mean of 2 arrays, mostly near background
Residues (chain): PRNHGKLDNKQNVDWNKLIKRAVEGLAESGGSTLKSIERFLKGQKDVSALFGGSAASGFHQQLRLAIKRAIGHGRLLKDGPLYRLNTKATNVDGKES
CACAGGCG: 0.143
AAAGCACA: 0.0875
ACAGGTCG: 0.00047
AGTGCCCA: 0.0894
CTACCTCA: -0.0931
TTAGAAAA: 0.111
CGACTGCC: -0.138
GAGGGCGC: 0.115

Sample 3 — observed: cell-free assay; technique: competition with immobilised ligand; tested at: 1 µM; quantity: remaining binding
Compound: CN(C)C(=O)Cn1cc(-c2nc(C3(c4ccc(-c5cnc(N)nc5)cc4)CC3)no2)cn1
EGFR (Homo sapiens, UniProt P00533, del752-759): 100%
Tyrosine-protein kinase ABL1, non-phosphorylated (ABL1, Homo sapiens, UniProt P00519, H396P): 100%
HIPK1 (Homo sapiens, UniProt Q86Z02): 63%
SRMS (Homo sapiens, UniProt Q9H3Y6): 73%
MAP4K5 (Homo sapiens, UniProt Q9Y4K4): 89%
NTRK2 (Homo sapiens, UniProt Q16620): 100%
NEK10 (Homo sapiens, UniProt Q6ZWH5): 99%
DCLK3 (Homo sapiens, UniProt Q9C098): 100%
NEK11 (Homo sapiens, UniProt Q8NG66): 90%
Ribosomal protein S6 kinase alpha-3, N-terminal kinase domain (RPS6KA3, Homo sapiens, UniProt P51812): 92%
KIT (Homo sapiens, UniProt P10721, D816V): 92%
Tyrosine-protein kinase ABL1, phosphorylated (ABL1, Homo sapiens, UniProt P00519, M351T): 100%
EPHB1 (Homo sapiens, UniProt P54762): 100%
SNRK (Homo sapiens, UniProt Q9NRH2): 100%
NLK (Homo sapiens, UniProt Q9UBE8): 94%
Tyrosine-protein kinase ABL1, non-phosphorylated (ABL1, Homo sapiens, UniProt P00519): 93%
CLK1 (Homo sapiens, UniProt P49759): 100%
PIK3C2B (Homo sapiens, UniProt O00750): 100%
AKT1 (Homo sapiens, UniProt P31749): 97%
PIKFYVE (Homo sapiens, UniProt Q9Y2I7): 98%

Sample 4 — cell line: mouse MPNST tumor cells; technique: high-content nuclear imaging; item: cell number; tested at: 10 µM; time: 12 h; setting: mean of 2 replicates; baseline: plate mean; direction: higher = more cells; quantity: nuclei count
Cc1cccc(-c2[nH]ncc2-c2ccnc3ccccc23)n1: -1.76 z-score
CCC(C)CCCC(=O)NC(CCN)C(=O)NC(C(=O)NC(CCN)C(=O)NC1CCNC(=O)C(C(C)O)NC(=O)C(CCN)NC(=O)C(CCN)NC(=O)C(CC(C)C)NC(=O)C(CC(C)C)NC(=O)C(CCN)NC1=O)C(C)O (centres unmarked): 1.67 z-score
CC1(C)CCC(C)(C)c2cc(C(O)C(=O)Nc3ccc(C(=O)O)cc3F)ccc21 (centres unmarked): -1.13 z-score

Sample 5 — cell line: A-375; tested at: 100 µM; time: 18 h; quantity: viability
C[C@@](Cc1ccc(O)c(O)c1)(NN)C(=O)O: 103%
Cc1[nH]c(=O)c(C#N)cc1-c1ccncc1: 88.1%
CCN(CC)CCCC(C)Nc1c2ccc(Cl)cc2nc2ccc(OC)cc12 (centres unmarked): 12.1%

Sample 6 — technique: PRP chromatography estimate; medium: 1,9-decadiene/PBS; pH: 7.4; quantity: logD
CC(C)C[C@@H]1NC(=O)[C@H](Cc2cscn2)NC(=O)[C@H](Cc2cscn2)NC(=O)[C@H](C)NC(=O)[C@@H](CCC(=O)N2CCCC2)NC(=O)[C@H](CC(C)C)NC(=O)[C@@H](CC(C)C)NC1=O: -2.29
CC(C)C[C@@H]1NC(=O)[C@H](CC(C)C)NC(=O)[C@H](CC(C)C)NC(=O)[C@H](Cc2cscn2)NC(=O)[C@@H](Cc2cscn2)NC(=O)[C@H](Cc2cscn2)NC(=O)[C@H](CCC(=O)N2CCCC2)NC1=O: -2.08
CC(C)C[C@@H]1NC(=O)[C@H](CC(C)C)NC(=O)[C@H](CC(C)C)NC(=O)[C@H](Cc2cscn2)NC(=O)[C@@H](CCC(=O)N2CCCC2)NC(=O)[C@H](Cc2cscn2)NC(=O)[C@H](C)NC1=O: -2.68
